Published values of several laboratories.
Lines come from different studies, so protocols differ. Several values in a cell are separate wells, animals, samples, runs or records. Numbers after ± are the reported error.

Under “surface marker level”, `Nc1cccc2c1C(=O)N(C1CCC(=O)NC1=O)C2=O` (stereo not shown) is recorded as 50.1% (RPMI-8226; flow cytometry, refers to: CD14; concentration not given; baseline: comparator compound alone).
`COc1cc(/C=C/C(=O)N2CCC=CC2=O)cc(OC)c1OC` gave a mRNA level of 55.2 ± 6.8% (MDA-MB-468; quantitative RT-PCR, refers to: PTGIS; 30 µM, 8 h; baseline: untreated cells).
`CCn1cc(-c2cc(Cn3ccoc3=N)cc3c2CCN([C@@H](C)c2cc(OC)ccn2)C3=O)c(C(F)(F)F)n1` has an EC50 of 107 nM (HEC151; cell growth; 120 h).
For `CO[C@H]1C(=O)[C@]2(C)[C@@H](OC)C[C@H]3OC[C@@]3(OC(C)=O)[C@H]2[C@H](OC(=O)c2ccccc2)[C@]2(O)C[C@H](OC(=O)[C@H](O)[C@@H](NC(=O)OC(C)(C)C)c3ccccc3)C(C)=C1C2(C)C`, the IC50 was 5.23 nM (HD-MB03; cell growth; 168 h, single agent).
Under “fold change in expression”, `Cn1cc(-c2ccc(-c3cncc(Cl)c3N3CCC4(CCNC4=O)CC3)cc2)cn1` is recorded as 1.2 (COLO 205; microarray, refers to: BCL2L1; concentration not given, 6 h, gene set Bcl-XL; baseline: untreated cells).
`CCn1cc(-c2cc(Cn3ccnc3)cc3c2CCN([C@H](c2cc(OC)ccn2)C2CC2)C3=O)c(C(F)(F)F)n1` has an EC50 of > 30000 nM (NCI-H358; cell growth, inhibitor; 120 h).
`Cc1cnc(NC2CCOCC2)nc1-n1cnc(C(=O)NC(CN)c2cc(F)cc(Cl)c2)c1` (stereo not shown) gave a sub-G0 cells of 0% (A-375; flow cytometry; 1 µM, 72 h).
`Cc1onc(-c2ccccc2)c1-c1ccc(S(N)(=O)=O)cc1`: “reversal of trafficking deficit” -16.6% (primary rat hippocampal/cortical neuron-glia cultures; 1 µM, together with: 1 µM α-synuclein oligomers).
`Cn1c(Nc2nc3ccc(C(F)(F)F)cc3s2)nc2cc(C(=O)NCCOCCO)ccc21` gave a fold change of 2.25 (SH-SY5Y; RNA-seq, refers to: DKK2 mRNA; 5 µM, 5 h; baseline: untreated cells).
`COc1ccc(COc2cc3oc(=O)c4cc(C(C)O)ccc4c3cc2OC)cc1` (stereo not shown) — result for IC50: “inactive” (HD-MB03; 168 h).
`CC(=O)N1CCCC(N2C(=O)c3cccc(N)c3C2=O)C1` (stereo not shown) gave an inhibition of 11% and ~10% (RAW 264.7; refers to: IL-6; 30 µM, together with: LPS).
`CC(C)n1nc(-c2ccc3oc(N)nc3c2)c2c(N)ncnc21` has an IC50 of 28.8 nM (HD-MB03; cell growth; 168 h, single agent).
With `Cc1ccc(Cn2cc(COc3cccc(Cc4cnc(NC(=O)CSc5nc(C)cc(C)n5)s4)c3)nn2)cc1` the inhibition was 32.7 ± 10.8% (HGC-27; cell viability, MTS; 10 µM).
Under “Bak and Smac/Diablo protein levels”, `O=C1c2ccncc2C(=O)c2c1[nH]c1ccccc21` is recorded as “increased” (pulmonary arterial smooth muscle cells, PAH patient; increased; concentration not given).
Under “relative cell number”, `Cl.Cl.NCCNS(=O)(=O)c1ccc(Cl)c2ccncc12` is recorded as 114% (SK-OV-3; ATP; 1 µM, 4 days, 3D U-bottom low-attachment; baseline: untreated).
With `O=C(/C=C/C=C/C=C/C1CCCCC1)NC1=C[C@@](O)(/C=C/C=C/C=C/C(=O)NC2=C(O)CCC2=O)[C@@H]2O[C@@H]2C1=O` the GI50 was 12700 nM (HT115; cell growth, CellTiter-Glo; 78 h).
For `CC(C)C[C@H](NC(=O)N1CCCCCC1)C(=O)N[C@H](Cc1cn(C)c2ccccc12)C(=O)N[C@H](Cc1ccc(O)cc1)C(=O)O`, the Kd was 0.163 nM (PC-3 intact cells, vector; radioligand binding).
The EC50 of `COc1cnc2cccc(N3CCc4c(cc(Cn5ccnc5C)cc4-c4cn(C)nc4C(F)(F)F)C3=O)c2c1` is reported as 3160 nM (Hs 294T; cell growth, inhibitor; 120 h).
Under “G1 phase cells”, `CC(C)(c1ccc(O)cc1)c1ccc(O)cc1` is recorded as 72 ± 7.13% (HepG2 spheroids; Hoechst flow cytometry; 1 µM, 96 h).
`COC(=O)C1=C(C)NC(C)=C(C(=O)OCCN2CCN(C(c3ccccc3)c3ccccc3)CC2)C1c1cccc([N+](=O)[O-])c1.Cl.Cl` (stereo not shown) gave an inhibition of 40.8% (Nedd8-cullin1 interaction; neddylation, AlphaScreen; 100 µM).
`Cn1ncnc1[C@H]1c2n[nH]c(=O)c3cc(F)cc(c23)N[C@@H]1c1ccc(F)cc1` gave an IC50 of 26.6 nM (HD-MB03; cell growth; 168 h, DMSO).
For `O=C(C[C@@H](C(F)F)n1ccc(F)n1)N1CCC(O)(Cn2cnc3c(cnn3-c3ccc(F)cc3)c2=O)CC1`, “apoptotic cells (early plus late)” read 23.2% and 24.4% and 25.3% (CHP-212 parental (wild-type USP7); annexin V-PI flow cytometry; 0.1 µM, 48 h).

Some of these lines once more:
`CC(C)n1nc(-c2ccc3oc(N)nc3c2)c2c(N)ncnc21` has an IC50 of 28.8 nM (HD-MB03; cell growth; 168 h, single agent).
Under “G1 phase cells”, `CC(C)(c1ccc(O)cc1)c1ccc(O)cc1` is recorded as 72 ± 7.13% (HepG2 spheroids; Hoechst flow cytometry; 1 µM, 96 h).
The EC50 of `COc1cnc2cccc(N3CCc4c(cc(Cn5ccnc5C)cc4-c4cn(C)nc4C(F)(F)F)C3=O)c2c1` is reported as 3160 nM (Hs 294T; cell growth, inhibitor; 120 h).
For `O=C(C[C@@H](C(F)F)n1ccc(F)n1)N1CCC(O)(Cn2cnc3c(cnn3-c3ccc(F)cc3)c2=O)CC1`, “apoptotic cells (early plus late)” read 23.2% and 24.4% and 25.3% (CHP-212 parental (wild-type USP7); annexin V-PI flow cytometry; 0.1 µM, 48 h).
